Published values from different studies.
Parts stem from different laboratories: compare values within a part only.

Block 1
Target: Sal-like protein 4, full length isoform B (SALL4, Homo sapiens, UniProt Q9UJQ4-2, residues 1-616)
Method: universal PBM
Molecule type: double-stranded DNA, one strand shown
Medium: in vitro
Tested at: not given
Setting: 8-mer, flanks averaged, mean of replicates
Direction: higher = stronger binding
Quantity: E-score
AAGTACGG: -0.0907
GCGACACA: -0.158
CAGCCCTC: -0.256
CCAGGTTC: -0.28
ATACAACG: 0.137

Block 2
Target: Interferon regulatory factor 7, full length, phosphomimetic (IRF7, Homo sapiens, UniProt Q92985, residues 1-503, S101K/S471D/S472D/S475D/S476D/S477D/S483D/S484D/S487D)
Method: protein-binding microarray
Molecule type: double-stranded DNA, one strand shown
Medium: in vitro
Tested at: 250 nM
Setting: 60-bp whole probe
With: salmon DNA 0.4 mg/ml
Baseline: random background probes
Direction: higher = stronger binding
Quantity: log fluorescence
All sequences stand within: GCCTAGCAC … GTCTTGATTCGCTTGACGCTGCTG
Target sequence (chain): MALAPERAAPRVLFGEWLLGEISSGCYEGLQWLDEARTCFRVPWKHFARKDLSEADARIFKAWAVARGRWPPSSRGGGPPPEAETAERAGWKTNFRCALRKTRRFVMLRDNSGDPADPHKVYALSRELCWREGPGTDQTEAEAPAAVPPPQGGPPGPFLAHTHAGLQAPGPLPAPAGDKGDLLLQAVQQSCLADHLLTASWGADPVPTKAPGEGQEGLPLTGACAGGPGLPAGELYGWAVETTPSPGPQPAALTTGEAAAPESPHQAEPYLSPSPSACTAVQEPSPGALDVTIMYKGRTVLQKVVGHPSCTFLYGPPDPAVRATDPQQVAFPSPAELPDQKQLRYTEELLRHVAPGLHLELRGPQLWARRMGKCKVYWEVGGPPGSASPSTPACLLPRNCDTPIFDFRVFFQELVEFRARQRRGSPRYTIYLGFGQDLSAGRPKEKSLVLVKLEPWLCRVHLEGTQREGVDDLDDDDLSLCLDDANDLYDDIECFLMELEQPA
GACGGACTGGACTATAGGGACGTGCTA: -0.666 z-score
TTAGGTATCGGGACCGGGTTAGTGCTA: 0.382 z-score
TTTGCATTGCTTCTATAGGCGTGCTAG: -0.469 z-score
TTAGATATCAGTCACGATTAGTGCTAG: 0.326 z-score
GACGATTCGAGTTTCGAGACGTGCTAG: 4.1 z-score
GACGGTTCCGACTATCGGGACGTGCTA: 0.378 z-score

Block 3
Target: Myc proto-oncogene protein, bHLH-zipper, MAX partner unstated (MYC, Homo sapiens, UniProt P01106, residues 368-449)
Chain of UniProt P01106 (368-449, looked up): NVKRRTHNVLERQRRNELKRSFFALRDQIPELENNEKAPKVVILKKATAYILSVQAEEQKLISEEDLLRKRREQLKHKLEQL
Method: protein-binding microarray
Molecule type: double-stranded DNA, one strand shown
Medium: in vitro
Tested at: not given
Setting: k-mer, scored over probes, only values ≥0.25
Direction: higher = stronger binding
Quantity: E-score
ACGCGTGG: 0.455
ACACATTG: 0.288
AAGCATGC: 0.429
CCATATGC: 0.401
ACGCATCT: 0.295
CCGTGGCG: 0.269
CCCCGCCG: 0.32
ATGGCGTG: 0.367

Further values, each from its own experiment
PhoQ, residues 284 288 289 292 302 303 ASSHFY  fold induction (PhoP, residues 12 14 15 18 19 QYFSL (Escherichia coli, UniProt P23836); Sort-seq, measured: YFP reporter; E. coli; PhoQ-PhoP variant library, with: 10 µM Mg2+; baseline: high Mg2+ state, higher = stronger signaling): 14
